Results from different studies.
Parts stem from different laboratories: compare values within a part only.
UniProt Q13976, sequence (whole entry, looked up): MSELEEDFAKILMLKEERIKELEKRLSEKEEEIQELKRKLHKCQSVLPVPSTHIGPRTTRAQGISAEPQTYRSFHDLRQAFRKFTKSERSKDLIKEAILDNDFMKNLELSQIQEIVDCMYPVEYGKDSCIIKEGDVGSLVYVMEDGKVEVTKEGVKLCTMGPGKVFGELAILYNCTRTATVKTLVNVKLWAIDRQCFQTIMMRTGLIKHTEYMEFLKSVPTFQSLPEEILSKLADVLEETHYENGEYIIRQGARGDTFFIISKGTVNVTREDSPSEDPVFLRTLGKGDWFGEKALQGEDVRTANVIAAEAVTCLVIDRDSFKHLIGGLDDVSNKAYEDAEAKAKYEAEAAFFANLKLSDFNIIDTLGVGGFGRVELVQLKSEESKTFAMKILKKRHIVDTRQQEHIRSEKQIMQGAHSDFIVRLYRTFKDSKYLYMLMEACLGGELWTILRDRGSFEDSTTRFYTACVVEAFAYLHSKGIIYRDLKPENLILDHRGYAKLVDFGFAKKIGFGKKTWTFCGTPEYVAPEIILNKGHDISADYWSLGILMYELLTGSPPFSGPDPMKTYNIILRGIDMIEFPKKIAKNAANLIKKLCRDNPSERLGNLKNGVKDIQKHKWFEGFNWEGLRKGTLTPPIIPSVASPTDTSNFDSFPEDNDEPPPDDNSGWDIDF
UniProt P42336, sequence (whole entry, unmodified, looked up): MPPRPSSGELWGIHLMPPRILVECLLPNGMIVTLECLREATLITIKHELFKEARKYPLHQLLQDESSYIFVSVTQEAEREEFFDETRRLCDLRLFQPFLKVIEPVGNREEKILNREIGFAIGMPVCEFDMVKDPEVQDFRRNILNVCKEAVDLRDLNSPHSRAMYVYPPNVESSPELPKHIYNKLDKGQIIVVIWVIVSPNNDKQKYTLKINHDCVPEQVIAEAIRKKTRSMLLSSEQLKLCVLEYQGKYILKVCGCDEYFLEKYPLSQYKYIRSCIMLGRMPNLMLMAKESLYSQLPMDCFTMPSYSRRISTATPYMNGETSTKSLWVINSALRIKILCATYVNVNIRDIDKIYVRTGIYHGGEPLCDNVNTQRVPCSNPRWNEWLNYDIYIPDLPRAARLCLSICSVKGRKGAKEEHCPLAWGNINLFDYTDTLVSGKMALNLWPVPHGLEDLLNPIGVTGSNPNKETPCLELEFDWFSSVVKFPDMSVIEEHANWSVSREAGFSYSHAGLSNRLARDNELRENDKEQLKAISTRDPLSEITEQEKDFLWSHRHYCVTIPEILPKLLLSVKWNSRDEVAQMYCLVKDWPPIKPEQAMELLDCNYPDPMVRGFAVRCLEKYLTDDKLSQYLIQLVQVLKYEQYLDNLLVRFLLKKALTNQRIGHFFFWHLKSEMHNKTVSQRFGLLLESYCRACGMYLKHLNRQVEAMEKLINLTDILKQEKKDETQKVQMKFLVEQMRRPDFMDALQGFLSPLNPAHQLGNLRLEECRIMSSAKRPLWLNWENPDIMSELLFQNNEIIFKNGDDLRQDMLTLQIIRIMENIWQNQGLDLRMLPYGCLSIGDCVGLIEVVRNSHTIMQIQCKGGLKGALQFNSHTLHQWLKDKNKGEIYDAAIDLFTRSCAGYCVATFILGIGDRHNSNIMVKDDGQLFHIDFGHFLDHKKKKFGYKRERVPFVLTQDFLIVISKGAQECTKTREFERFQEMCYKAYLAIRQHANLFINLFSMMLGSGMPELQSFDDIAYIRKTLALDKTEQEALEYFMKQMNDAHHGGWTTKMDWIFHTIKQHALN
UniProt P20794, sequence (whole entry, looked up): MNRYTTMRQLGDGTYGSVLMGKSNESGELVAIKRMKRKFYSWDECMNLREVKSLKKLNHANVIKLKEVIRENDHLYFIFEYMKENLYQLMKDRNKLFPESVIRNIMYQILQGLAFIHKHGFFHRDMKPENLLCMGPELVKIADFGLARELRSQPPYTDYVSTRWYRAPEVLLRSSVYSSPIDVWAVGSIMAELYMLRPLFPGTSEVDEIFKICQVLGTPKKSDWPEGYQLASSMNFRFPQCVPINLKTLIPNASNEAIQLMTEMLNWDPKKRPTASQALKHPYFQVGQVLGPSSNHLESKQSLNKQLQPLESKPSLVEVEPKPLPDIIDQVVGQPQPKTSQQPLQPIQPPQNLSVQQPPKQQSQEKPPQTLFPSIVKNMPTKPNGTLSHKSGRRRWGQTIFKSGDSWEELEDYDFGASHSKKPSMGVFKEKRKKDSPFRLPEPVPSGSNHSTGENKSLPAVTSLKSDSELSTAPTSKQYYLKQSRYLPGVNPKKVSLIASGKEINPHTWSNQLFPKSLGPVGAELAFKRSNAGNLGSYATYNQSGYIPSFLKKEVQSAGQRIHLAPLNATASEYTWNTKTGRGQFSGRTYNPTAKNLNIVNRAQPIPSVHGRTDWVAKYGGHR
UniProt P54753, sequence (whole entry, looked up): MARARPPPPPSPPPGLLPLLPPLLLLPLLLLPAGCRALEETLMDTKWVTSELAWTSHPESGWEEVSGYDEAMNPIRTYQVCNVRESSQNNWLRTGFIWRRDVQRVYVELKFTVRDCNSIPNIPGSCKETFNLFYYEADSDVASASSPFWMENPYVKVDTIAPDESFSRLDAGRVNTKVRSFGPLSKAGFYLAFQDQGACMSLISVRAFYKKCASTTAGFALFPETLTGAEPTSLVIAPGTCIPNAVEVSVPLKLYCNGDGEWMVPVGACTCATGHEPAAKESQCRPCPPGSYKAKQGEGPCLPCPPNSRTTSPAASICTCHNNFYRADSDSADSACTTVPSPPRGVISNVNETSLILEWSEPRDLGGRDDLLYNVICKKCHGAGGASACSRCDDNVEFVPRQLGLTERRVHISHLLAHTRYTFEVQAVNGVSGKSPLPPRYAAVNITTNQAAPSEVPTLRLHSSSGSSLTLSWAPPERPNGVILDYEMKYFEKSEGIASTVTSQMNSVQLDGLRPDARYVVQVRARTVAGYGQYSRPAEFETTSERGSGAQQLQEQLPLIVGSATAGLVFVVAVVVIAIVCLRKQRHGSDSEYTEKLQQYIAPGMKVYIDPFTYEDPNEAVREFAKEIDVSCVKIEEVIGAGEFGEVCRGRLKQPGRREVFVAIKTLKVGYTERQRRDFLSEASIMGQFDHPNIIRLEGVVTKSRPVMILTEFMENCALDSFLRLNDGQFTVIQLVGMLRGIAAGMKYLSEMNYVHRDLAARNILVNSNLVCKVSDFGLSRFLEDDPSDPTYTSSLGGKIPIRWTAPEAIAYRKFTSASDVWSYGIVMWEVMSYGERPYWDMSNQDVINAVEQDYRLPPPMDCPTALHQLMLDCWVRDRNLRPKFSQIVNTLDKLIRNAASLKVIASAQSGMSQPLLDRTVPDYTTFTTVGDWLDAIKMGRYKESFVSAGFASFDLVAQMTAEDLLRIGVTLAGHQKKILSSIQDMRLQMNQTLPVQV
UniProt O94804, sequence (whole entry, looked up): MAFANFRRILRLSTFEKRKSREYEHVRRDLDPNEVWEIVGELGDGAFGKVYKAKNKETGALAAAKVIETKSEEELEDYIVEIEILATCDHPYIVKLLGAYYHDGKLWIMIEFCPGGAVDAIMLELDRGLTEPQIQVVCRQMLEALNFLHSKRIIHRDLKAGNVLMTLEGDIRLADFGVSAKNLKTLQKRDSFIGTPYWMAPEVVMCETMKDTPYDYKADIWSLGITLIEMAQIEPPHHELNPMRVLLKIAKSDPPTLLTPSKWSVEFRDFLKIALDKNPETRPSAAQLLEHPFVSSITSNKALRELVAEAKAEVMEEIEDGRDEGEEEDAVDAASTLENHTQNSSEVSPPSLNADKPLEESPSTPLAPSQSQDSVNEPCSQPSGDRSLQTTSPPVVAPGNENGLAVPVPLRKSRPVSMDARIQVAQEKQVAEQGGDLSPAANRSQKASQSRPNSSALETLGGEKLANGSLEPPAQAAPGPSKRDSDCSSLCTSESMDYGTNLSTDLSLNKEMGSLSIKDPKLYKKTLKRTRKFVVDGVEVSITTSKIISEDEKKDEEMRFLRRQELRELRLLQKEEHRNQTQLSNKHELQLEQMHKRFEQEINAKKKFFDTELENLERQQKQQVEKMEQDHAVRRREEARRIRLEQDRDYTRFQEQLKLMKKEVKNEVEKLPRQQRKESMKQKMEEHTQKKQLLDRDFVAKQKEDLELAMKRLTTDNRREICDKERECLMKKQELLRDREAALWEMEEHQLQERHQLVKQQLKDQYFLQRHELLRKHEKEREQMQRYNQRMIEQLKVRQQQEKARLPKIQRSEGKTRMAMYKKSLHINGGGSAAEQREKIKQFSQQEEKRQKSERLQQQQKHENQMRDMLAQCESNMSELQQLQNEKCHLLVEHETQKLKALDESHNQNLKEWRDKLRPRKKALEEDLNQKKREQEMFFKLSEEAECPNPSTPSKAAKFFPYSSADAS
UniProt Q13557, sequence (whole entry, looked up): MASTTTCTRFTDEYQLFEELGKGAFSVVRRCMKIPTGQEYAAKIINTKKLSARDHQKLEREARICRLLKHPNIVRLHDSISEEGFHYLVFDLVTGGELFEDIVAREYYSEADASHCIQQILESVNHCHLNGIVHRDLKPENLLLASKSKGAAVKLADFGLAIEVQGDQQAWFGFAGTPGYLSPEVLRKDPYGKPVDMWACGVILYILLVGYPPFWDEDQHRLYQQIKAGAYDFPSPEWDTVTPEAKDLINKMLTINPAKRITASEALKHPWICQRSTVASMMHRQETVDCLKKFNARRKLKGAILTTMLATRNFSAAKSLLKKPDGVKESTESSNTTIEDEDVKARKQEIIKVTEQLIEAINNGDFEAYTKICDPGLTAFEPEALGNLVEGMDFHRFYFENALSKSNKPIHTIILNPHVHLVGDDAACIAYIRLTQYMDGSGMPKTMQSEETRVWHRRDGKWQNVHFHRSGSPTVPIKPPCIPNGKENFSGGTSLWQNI

Sample 1
Target: Prothrombin, mature alpha-thrombin (F2, Homo sapiens, UniProt P00734)
Technique: aptamer microarray, sandwich
Molecule type: DNA with 2'F-ANA
Matrix: in vitro
Concentration: 200 nM
Notes: whole 15-mer aptamer, many near background
Together with: Cy3 exosite-II aptamer, 400 nM
Direction: higher = stronger binding
Oligonucleotide: GGTTGGTGTGGTTGG
Modification	mean fluorescence intensity [a.u.]
2'F-ANA at 1 5 6 8 10 12 14 15	50.8
2'F-ANA at 1 2 4 6 9 10 11 14 15	51.2
2'F-ANA at 1 2 5 8 9 13 14	45.6
2'F-ANA at 1 3 4 7 8 9 11 12 14 15	79.8
2'F-ANA at 2 3 5 8 14	55.5
2'F-ANA at 2 3 4 6 7 8 10 11 15	189
2'F-ANA at 1 5 6 7 8 10 13	45.3
2'F-ANA at 3 5 6 7 10 12 13 14 15	51.2

Sample 2
Structure (SMILES): CC[n+]1c(/C=C/N(C)c2ccccc2)n(-c2ccccc2)c2ccc(-c3nc4ccccc4s3)cc21
Read-out: enzyme activity
Action: inhibitor
Concentration: 0.5 µM
Reference: control
target	remaining activity
STK10 (Homo sapiens, UniProt O94804)	101%
CAMK2D (Homo sapiens, UniProt Q13557)	94%
MAP3K3 (Homo sapiens, UniProt Q99759)	109%
cGMP-dependent protein kinase 1, isoform beta (PRKG1, Homo sapiens, UniProt Q13976)	105%
CHEK2 (Homo sapiens, UniProt O96017)	105%

Sample 3
Target: Interferon regulatory factor 5, full length, phosphomimetic (IRF5, Homo sapiens, UniProt Q13568-2, residues 1-514, K96S/S451D/S453D/S456D/S462D)
Technique: protein-binding microarray
Molecule type: double-stranded DNA, one strand shown
Matrix: in vitro
Concentration: 250 nM
Notes: 60-bp whole probe
Together with: salmon DNA 0.4 mg/ml
Reference: random background probes
Direction: higher = stronger binding
Shared flanks, not repeated: GCCTAGCAC … GTCTTGATTCGCTTGACGCTGCTG
Oligonucleotide	log fluorescence
GAGGATATCGGGTTTCGAGACGTGCTA	2.66 z-score
TTAGGTATCTTTTTCCTTTAGTGCTAG	0.603 z-score
GACGGTTTCGGGAGTGGGGACGTGCTA	4.38 z-score
TTAGGTATCAGTATCGATTAGTGCTAG	8.13 z-score
TTAGGTATCGACTACCGGTTAGTGCTA	3.77 z-score
GCCGGTATCGACACTGGGGACGTGCTA	2.09 z-score
TGGAACCAGCGAACGAGCGGGTGCTAG	-0.539 z-score
TCATGTGTCTGATTATTACTGTGCTAG	-0.0131 z-score

Sample 4
SMILES: C[C@H](c1ccnc(Nc2nc3ccc(-c4cc(N(C)C)ncn4)cc3[nH]2)c1)N1CCN(C(=O)CC(F)(F)F)CC1
Technique: competition with immobilised ligand
Concentration: 0.1 µM
target	assay	remaining binding
PDGFRB (Homo sapiens, UniProt P09619)	cell-free assay	82%
EPHB3 (Homo sapiens, UniProt P54753)	cell-free assay	93%
CDK11A (Homo sapiens, UniProt Q9UQ88)	binding	84%
MAP3K14 (Homo sapiens, UniProt Q99558)	cell-free assay	100%
MKNK2 (Homo sapiens, UniProt Q9HBH9)	cell-free assay	86%
MAPK13 (Homo sapiens, UniProt O15264)	cell-free assay	80%
Tyrosine-protein kinase ABL1, non-phosphorylated (ABL1, Homo sapiens, UniProt P00519)	cell-free assay	89%
CDK13 (Homo sapiens, UniProt Q14004)	cell-free assay	100%
TNIK (Homo sapiens, UniProt Q9UKE5)	cell-free assay	96%
CILK1 (Homo sapiens, UniProt Q9UPZ9)	binding	88%
PIK3CA (Homo sapiens, UniProt P42336, E545A)	cell-free assay	100%
CDK4 (Homo sapiens, UniProt P11802)	cell-free assay	100%
MAK (Homo sapiens, UniProt P20794)	binding	100%
ALK (Homo sapiens, UniProt Q9UM73, C1156Y)	cell-free assay	100%

Some of these lines once more (sample 1):
Modification	mean fluorescence intensity [a.u.]
2'F-ANA at 2 3 4 6 7 8 10 11 15	189
2'F-ANA at 1 5 6 7 8 10 13	45.3
2'F-ANA at 1 3 4 7 8 9 11 12 14 15	79.8
2'F-ANA at 2 3 5 8 14	55.5
2'F-ANA at 3 5 6 7 10 12 13 14 15	51.2
2'F-ANA at 1 2 5 8 9 13 14	45.6
